Published values from different studies.
Every numbered part comes from another study and shows a few of its results, in no order. Several values in a cell are separate wells, animals, samples, runs or records.
Chain of UniProt Q8N5S9 (whole entry, looked up): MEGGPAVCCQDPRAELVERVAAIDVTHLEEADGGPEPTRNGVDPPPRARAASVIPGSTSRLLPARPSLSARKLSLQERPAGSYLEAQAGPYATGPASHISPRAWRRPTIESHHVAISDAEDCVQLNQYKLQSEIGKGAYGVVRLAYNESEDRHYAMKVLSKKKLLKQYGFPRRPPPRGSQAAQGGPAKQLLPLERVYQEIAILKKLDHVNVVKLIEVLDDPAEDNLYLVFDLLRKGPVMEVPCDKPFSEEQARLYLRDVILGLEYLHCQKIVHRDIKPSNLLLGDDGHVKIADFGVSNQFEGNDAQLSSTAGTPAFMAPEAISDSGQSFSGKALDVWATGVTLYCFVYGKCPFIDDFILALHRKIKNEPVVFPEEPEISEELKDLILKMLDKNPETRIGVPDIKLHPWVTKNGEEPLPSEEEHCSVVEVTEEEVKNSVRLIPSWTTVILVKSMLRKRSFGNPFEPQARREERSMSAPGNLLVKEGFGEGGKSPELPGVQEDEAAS
Chain of UniProt Q9Y243 (whole entry, looked up): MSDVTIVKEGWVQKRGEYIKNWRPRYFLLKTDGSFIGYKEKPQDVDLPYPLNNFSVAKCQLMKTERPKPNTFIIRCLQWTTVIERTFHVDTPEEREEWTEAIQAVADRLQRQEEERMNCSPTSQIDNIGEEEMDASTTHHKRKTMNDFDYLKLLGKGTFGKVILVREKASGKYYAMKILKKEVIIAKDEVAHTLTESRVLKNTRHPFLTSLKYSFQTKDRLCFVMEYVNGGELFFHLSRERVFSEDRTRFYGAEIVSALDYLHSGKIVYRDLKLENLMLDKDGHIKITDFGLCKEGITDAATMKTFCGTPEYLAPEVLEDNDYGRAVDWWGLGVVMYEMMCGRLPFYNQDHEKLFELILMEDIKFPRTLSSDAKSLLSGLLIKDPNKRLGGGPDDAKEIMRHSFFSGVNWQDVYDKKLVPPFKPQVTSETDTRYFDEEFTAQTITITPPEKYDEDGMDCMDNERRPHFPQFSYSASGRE
Chain of UniProt P42685 (whole entry, looked up): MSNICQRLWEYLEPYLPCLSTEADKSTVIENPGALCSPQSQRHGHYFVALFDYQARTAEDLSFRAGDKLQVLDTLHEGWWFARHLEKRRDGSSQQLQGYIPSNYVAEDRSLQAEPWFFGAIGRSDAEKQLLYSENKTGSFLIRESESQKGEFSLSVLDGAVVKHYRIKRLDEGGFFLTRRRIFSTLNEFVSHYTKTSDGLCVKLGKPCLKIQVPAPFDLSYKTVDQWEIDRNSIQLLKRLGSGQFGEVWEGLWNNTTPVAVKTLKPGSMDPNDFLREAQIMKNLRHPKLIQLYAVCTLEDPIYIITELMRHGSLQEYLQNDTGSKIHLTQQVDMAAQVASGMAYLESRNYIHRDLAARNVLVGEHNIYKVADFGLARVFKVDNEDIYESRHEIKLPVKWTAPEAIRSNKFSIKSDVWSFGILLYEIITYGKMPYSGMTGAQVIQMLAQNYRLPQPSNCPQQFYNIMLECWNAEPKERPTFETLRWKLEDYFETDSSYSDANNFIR
Chain of UniProt P53667 (whole entry, looked up): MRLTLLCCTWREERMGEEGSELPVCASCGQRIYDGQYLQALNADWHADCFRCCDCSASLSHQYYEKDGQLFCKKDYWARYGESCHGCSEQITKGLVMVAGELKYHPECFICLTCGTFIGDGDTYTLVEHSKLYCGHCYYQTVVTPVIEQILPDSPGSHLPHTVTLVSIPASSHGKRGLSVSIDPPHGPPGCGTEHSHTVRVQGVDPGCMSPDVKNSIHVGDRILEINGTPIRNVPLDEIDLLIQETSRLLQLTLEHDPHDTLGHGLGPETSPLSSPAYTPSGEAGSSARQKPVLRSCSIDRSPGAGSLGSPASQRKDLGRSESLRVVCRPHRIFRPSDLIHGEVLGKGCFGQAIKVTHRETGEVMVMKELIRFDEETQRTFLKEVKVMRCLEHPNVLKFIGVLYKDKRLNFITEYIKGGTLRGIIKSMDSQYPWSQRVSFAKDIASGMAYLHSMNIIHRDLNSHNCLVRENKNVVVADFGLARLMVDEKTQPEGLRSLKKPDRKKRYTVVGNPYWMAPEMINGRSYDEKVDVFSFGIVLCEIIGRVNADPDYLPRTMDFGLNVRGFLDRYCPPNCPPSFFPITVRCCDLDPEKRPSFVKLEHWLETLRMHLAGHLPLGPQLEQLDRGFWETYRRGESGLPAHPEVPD
Chain of UniProt Q9UIK4 (whole entry, looked up): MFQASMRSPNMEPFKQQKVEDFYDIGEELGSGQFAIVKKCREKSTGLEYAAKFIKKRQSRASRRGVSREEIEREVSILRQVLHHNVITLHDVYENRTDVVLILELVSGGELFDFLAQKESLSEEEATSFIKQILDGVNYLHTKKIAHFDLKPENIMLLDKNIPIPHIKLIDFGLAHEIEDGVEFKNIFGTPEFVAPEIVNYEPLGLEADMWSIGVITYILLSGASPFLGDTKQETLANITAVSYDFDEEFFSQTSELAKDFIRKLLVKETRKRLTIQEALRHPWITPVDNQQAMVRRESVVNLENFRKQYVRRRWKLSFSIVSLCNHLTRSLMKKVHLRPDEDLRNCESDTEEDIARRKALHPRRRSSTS

Set 1
SMILES: CNc1ncc2cc(-c3cc(OC)cc(OC)c3Cl)c(=O)n(CCc3ccc(NC(=O)C(C#N)=CC(C)(C)N4CCOCC4)cc3)c2n1
Observed: kinase activity
target	concentration	inhibition [%]
MAP4K2 (Homo sapiens, UniProt Q12851)	0.1 µM	-2
CAMK2G (Homo sapiens, UniProt Q13555)	0.1 µM	-1
CSNK1G1 (Homo sapiens, UniProt Q9HCP0)	0.1 µM	1
CHEK2 (Homo sapiens, UniProt O96017)	1 µM	0
STK25 (Homo sapiens, UniProt O00506)	1 µM	21
EPHA4 (Homo sapiens, UniProt P54764)	0.1 µM	-3
MAPK3 (Homo sapiens, UniProt P27361)	1 µM	-8
NEK2 (Homo sapiens, UniProt P51955)	1 µM	-9
MARK2 (Homo sapiens, UniProt Q7KZI7)	0.1 µM	3
AKT3 (Homo sapiens, UniProt Q9Y243)	0.1 µM	0
MARK4 (Homo sapiens, UniProt Q96L34)	0.1 µM	0
SRC (Homo sapiens, UniProt P12931)	1 µM	17
PTK2B (Homo sapiens, UniProt Q14289)	0.1 µM	-1
BRSK1 (Homo sapiens, UniProt Q8TDC3)	1 µM	1
FRK (Homo sapiens, UniProt P42685)	1 µM	6
SIK2 (Homo sapiens, UniProt Q9H0K1)	0.1 µM	-2
EPHB3 (Homo sapiens, UniProt P54753)	1 µM	0
LRRK2 (Homo sapiens, UniProt Q5S007, G2019S)	1 µM	-5
DAPK3 (Homo sapiens, UniProt O43293)	0.1 µM	1
RIPK2 (Homo sapiens, UniProt O43353)	1 µM	-6
EPHA2 (Homo sapiens, UniProt P29317)	1 µM	4

Set 2
SMILES: C[C@@H]1CN(c2ccc(-c3cc(C(=O)NCCOCCOCCOCCOCCNC(=O)/C=C/c4[nH]cc(C(=O)N[C@@H](CC(N)=O)c5ccc(F)c(Cl)c5)c4-c4ccc(Cl)cc4F)ccc3F)cc2NC(=O)c2c[nH]c(=O)cc2C(F)(F)F)C[C@H](C)N1C
Observed: thermal unfolding
Technique: differential scanning fluorimetry
Concentration: 5.5 µM
Reading: higher = more unfolded
WDR5: WD repeat-containing protein 5 (WDR5, Homo sapiens, UniProt P61964)
DCAF1: DDB1- and CUL4-associated factor 1 (DCAF1, Homo sapiens, UniProt Q9Y4B6)
Chain of UniProt Q9Y4B6 (whole entry, looked up): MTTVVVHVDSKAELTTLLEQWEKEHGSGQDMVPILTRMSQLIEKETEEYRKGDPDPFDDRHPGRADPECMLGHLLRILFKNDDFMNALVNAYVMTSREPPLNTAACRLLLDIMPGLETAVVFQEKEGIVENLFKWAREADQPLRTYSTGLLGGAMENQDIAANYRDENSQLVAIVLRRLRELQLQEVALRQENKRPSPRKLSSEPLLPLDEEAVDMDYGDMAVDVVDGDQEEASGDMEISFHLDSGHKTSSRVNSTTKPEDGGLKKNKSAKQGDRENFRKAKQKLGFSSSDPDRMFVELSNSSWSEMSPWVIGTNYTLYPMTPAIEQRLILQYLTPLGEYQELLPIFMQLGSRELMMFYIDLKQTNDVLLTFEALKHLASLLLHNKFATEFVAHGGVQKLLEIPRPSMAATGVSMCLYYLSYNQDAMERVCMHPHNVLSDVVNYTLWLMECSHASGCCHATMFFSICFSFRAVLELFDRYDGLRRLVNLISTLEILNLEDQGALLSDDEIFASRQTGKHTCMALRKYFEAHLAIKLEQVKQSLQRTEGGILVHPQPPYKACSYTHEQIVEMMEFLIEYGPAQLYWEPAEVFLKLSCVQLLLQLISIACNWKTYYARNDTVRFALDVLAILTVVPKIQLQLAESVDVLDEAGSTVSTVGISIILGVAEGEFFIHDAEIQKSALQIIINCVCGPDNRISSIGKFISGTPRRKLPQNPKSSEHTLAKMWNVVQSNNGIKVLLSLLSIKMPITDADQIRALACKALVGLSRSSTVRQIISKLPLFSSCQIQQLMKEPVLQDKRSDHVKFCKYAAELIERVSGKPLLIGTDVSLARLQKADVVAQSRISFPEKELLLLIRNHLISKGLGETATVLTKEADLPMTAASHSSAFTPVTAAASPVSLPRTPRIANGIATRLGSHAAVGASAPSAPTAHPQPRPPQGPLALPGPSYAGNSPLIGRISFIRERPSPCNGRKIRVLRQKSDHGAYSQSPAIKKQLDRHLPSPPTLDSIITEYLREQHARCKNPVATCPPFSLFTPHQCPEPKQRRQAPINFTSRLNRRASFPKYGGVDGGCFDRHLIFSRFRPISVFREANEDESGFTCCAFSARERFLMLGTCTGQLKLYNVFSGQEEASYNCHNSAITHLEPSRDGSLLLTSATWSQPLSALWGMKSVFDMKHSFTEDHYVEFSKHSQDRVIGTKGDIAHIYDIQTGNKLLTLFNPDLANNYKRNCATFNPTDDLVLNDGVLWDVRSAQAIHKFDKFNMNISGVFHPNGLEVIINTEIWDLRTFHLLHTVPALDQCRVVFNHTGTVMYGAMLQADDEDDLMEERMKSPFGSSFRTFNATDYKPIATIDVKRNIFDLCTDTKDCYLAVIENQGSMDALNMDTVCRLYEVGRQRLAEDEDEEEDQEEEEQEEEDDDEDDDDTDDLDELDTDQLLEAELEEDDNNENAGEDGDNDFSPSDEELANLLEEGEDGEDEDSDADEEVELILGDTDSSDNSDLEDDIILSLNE
target	temperature	SYPRO Orange fluorescence [a.u.]
WDR5	85.01 °C	52300
DCAF1	51.2 °C	16200
DCAF1	84.21 °C	41100
WDR5	46.2 °C	15500
DCAF1	77.81 °C	47300
WDR5	55.01 °C	16800
DCAF1	47 °C	13900
WDR5	29.6 °C	12700
DCAF1	91.61 °C	33300
WDR5	79.21 °C	38100
WDR5	42.8 °C	15000

Set 3
SMILES: COCC1CC2C(CCC3(C)C(O)CCC23)c2ccc(O)cc21 (stereo not drawn)
Cell line: PANC-1
Technique: DNA microarray
Concentration: concentration not given
Relative to: control
measured	fold change
CCL1 mRNA (probe A_23_P49759)	1
C6 mRNA	1
UBD mRNA	0.287

Set 4
Compound: Cc1ccc(O)c(C)c1-c1cnc2[nH]c(-c3cnc(N4CCC5(CC4)CC(N4CCN(c6ccc(N[C@H]7CCC(=O)NC7=O)cc6F)CC4)CO5)nc3)cc2c1C#N (single isomer, unassigned)
PKMYT1: Membrane-associated tyrosine- and threonine-specific cdc2-inhibitory kinase (PKMYT1, Homo sapiens, UniProt Q99640)
Chain of UniProt Q99640 (whole entry, looked up): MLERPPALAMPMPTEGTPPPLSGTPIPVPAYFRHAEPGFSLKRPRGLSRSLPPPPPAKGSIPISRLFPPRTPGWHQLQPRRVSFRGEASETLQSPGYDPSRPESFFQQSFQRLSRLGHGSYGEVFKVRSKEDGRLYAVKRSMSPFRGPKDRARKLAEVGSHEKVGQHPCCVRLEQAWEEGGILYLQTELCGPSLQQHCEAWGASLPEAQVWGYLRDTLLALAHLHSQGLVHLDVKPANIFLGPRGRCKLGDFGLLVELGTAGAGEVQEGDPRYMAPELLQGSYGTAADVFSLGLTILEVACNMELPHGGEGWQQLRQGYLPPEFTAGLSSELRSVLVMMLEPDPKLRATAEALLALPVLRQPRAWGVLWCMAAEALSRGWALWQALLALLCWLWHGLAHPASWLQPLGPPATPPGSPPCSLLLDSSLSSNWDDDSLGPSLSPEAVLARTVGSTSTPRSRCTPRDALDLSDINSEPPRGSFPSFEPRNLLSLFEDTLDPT
tested on	test	test system	conditions	degradation
PKMYT1	degrader, automated immunoblot (Jess)	HCC1569	1.37 nM, 24 h	65.7%
PKMYT1	degrader, automated immunoblot (Jess)	HCC1569	100 nM, 2 h	~60% and 65% and ~65%
PKMYT1	degrader, automated immunoblot (Jess)		4.12 nM, 24 h	81.5% and 81.4%
PKMYT1	degrader, automated immunoblot (Jess)		37.04 nM, 24 h	86.7% and 90%
PKMYT1	degrader, automated immunoblot (Jess)	HCC1569	1 nM, 4 h	41.2%
PKMYT1	degrader, automated immunoblot (Jess)		0.02 nM, 24 h	-5.14% and -11.1%
PKMYT1	degrader, automated immunoblot (Jess)	HCC1569	100 nM, 24 h	93.8%
PKMYT1	degrader, automated immunoblot (Jess)		111.11 nM, 24 h	86.2% and 90.1%
	automated immunoblotting, measured: PKMYT1	mouse, HCC1569 xenograft, tumour	dose not given, 144 h	71% and 63.1% and 49.2% and 59.4% and 73.5% and 57.8%

Set 5
SMILES: Cc1ncsc1-c1ccc(C(CO)NC(=O)C2CC(O)CN2C(=O)C(C(C)C)n2cc(-c3ccc(COc4c(-c5c(C)c(F)cc6[nH]ncc56)c(C5CC5)cc5c(N6CC7CC6CN7)nc(OC6CCOCC6)nc45)cc3)nn2)cc1 (stereo not drawn)
cells	host	route	dose	time	tumour volume
HPAC xenograft	mouse		30 mg/kg once weekly	day 4	189 mm3 and 154 mm3 and 158 mm3 and 166 mm3 and 226 mm3
	mouse, lung LXFA sample B PDX		30 mg/kg twice weekly	day 11	56.2 mm3 and 61 mm3 and 53.9 mm3 and 130 mm3 and 124 mm3 and 57.1 mm3 and 81.1 mm3 and 28.2 mm3
	mouse, PK-59 xenograft		10 mg/kg	day 0	229 mm3 and 309 mm3 and 279 mm3 and 336 mm3 and 321 mm3
	mouse, PK-59 xenograft		0.3 mg/kg	day 7	774 mm3 and 670 mm3 and 636 mm3 and 649 mm3 and 641 mm3
	mouse, lung LXFA sample A PDX		30 mg/kg twice weekly	day 2	83.3 mm3 and 283 mm3 and 115 mm3 and 214 mm3 and 111 mm3 and 134 mm3 and 51.6 mm3 and 190 mm3
	mouse, PK-59 xenograft	subcutaneous	30 mg/kg once daily	day 11	54 mm3 and 53.5 mm3 and 81.5 mm3 and 78.4 mm3 and 52.9 mm3
ASPC1 xenograft	mouse		30 mg/kg once weekly	day 14	211 mm3 and 218 mm3 and 278 mm3 and 205 mm3 and 229 mm3
PK-1 xenograft	mouse		30 mg/kg once weekly	day 10	157 mm3 and 179 mm3 and 165 mm3 and 151 mm3 and 190 mm3
	mouse, GP2d xenograft		30 mg/kg twice weekly	day 0	188 mm3 and 200 mm3 and 187 mm3 and 192 mm3 and 245 mm3
	mouse, PK-59 xenograft		1 mg/kg	day 17	790 mm3 and 868 mm3 and 1030 mm3 and 985 mm3 and 847 mm3

Set 6
Compound: COc1cc(-c2nc3ccc(C(=O)NCCCN(C)C)cc3n2C2CCC2)cc(OC)c1OC
Observed: binding
Technique: competition with immobilised ligand
Concentration: 1 µM
target	remaining binding [%]
PAK6 (Homo sapiens, UniProt Q9NQU5)	100
STK39 (Homo sapiens, UniProt Q9UEW8)	99
NEK4 (Homo sapiens, UniProt P51957)	99
TLK2 (Homo sapiens, UniProt Q86UE8)	92
Non-receptor tyrosine-protein kinase TYK2, JH2 (TYK2, Homo sapiens, UniProt P29597)	83
CAMKK1 (Homo sapiens, UniProt Q8N5S9)	97
FLT1 (Homo sapiens, UniProt P17948)	100
GAK (Homo sapiens, UniProt O14976)	92
CHUK (Homo sapiens, UniProt O15111)	100
PRKAA1 (Homo sapiens, UniProt Q13131)	100
MKNK1 (Homo sapiens, UniProt Q9BUB5)	90
WNK1 (Homo sapiens, UniProt Q9H4A3)	100
DAPK2 (Homo sapiens, UniProt Q9UIK4)	100
LIM domain kinase 1 (LIMK1, Homo sapiens, UniProt P53667)	79
CSNK2A1 (Homo sapiens, UniProt P68400)	100
GRK7 (Homo sapiens, UniProt Q8WTQ7)	100
PRKD2 (Homo sapiens, UniProt Q9BZL6)	99
LIM domain kinase 2 (LIMK2, Homo sapiens, UniProt P53671)	83
CSNK1E (Homo sapiens, UniProt P49674)	100
FLT3 (Homo sapiens, UniProt P36888, K663Q)	70

Set 7
Structure (SMILES): CN1C(=O)C(O)(C(=O)O)Oc2cc(F)ccc21 (stereo not drawn)
organism	test	test system	conditions	how to read	inhibition
Arabidopsis thaliana	hypocotyl length	Col-0, seedlings	25 µg/mL		24.4%
Arabidopsis thaliana	root length	Col-0, seedlings	3.125 µg/mL	relative to: water control	7.57%
Arabidopsis thaliana	root length	Col-0	12.5 µg/mL, 7 days, seed germination, dark		22.7%
Triticum aestivum	fresh weight		soil surface spray, 150 g ai/ha, 21 days, pre-emergence crop safety		9.2% and 7% and 8%
Arabidopsis thaliana	hypocotyl length	Col-0	3.125 µg/mL, 7 days, seed germination, dark		7.4%
Arabidopsis thaliana	root length	Col-0	100 µg/mL, 7 days, seed germination, dark		63.2%
Arabidopsis thaliana	root length	Col-0, seedlings	100 µg/mL		63.2%
Arabidopsis thaliana	root length	Col-0, seedlings	12.5 µg/mL		22.7%
Eclipta prostrata	fresh weight		150 g ai/ha, post-emergence treatment		48% and 43.8% and 43.3%
Arabidopsis thaliana	hypocotyl length	Col-0	50.0 µg/mL, 7 days, seed germination, dark		28.6%
Arabidopsis thaliana	root length	Col-0, seedlings	12.5 µg/mL	relative to: water control	22.7%
Oryza sativa	fresh weight		soil surface spray, 150 g ai/ha, 21 days, pre-emergence crop safety		8.9% and 8.7% and 9.4%
Alopecurus aequalis	fresh weight		150 g ai/ha, pre-emergence treatment		67.7% and 62.8% and 65.1%
Arabidopsis thaliana	root length	Col-0	6.25 µg/mL, 7 days, seed germination, dark		11.9%
Arabidopsis thaliana	root length	Col-0	50.0 µg/mL, 7 days, seed germination, dark		36.5%
Abutilon theophrasti	fresh weight		150 g ai/ha, pre-emergence treatment		61.2% and 54.2% and 63.4%
Arabidopsis thaliana	hypocotyl length	Col-0, seedlings	6.25 µg/mL		13.1%
Alopecurus japonicus	fresh weight		150 g ai/ha, pre-emergence treatment		60.2% and 61.7% and 57.8%

Set 8
Compound: NC/C(=C\F)COc1cccc(Cn2c(=S)[nH]c(=O)c3[nH]cnc32)c1
Time: 60 min
matrix	remaining compound
dog liver microsomes	86.7% and 84.8% and 71.4% and 76.6%
dog hepatocytes	78.3% and 71.9% and 78.1% and 77.8%
rat liver microsomes	95.6% and 98.4% and 73.7% and 92.1%
rat hepatocytes	103% and 88.6% and 81.9% and 88.1%

A few entries again (set 1):
target	concentration	inhibition [%]
NEK2 (Homo sapiens, UniProt P51955)	1 µM	-9
EPHB3 (Homo sapiens, UniProt P54753)	1 µM	0
CSNK1G1 (Homo sapiens, UniProt Q9HCP0)	0.1 µM	1
MAP4K2 (Homo sapiens, UniProt Q12851)	0.1 µM	-2
SIK2 (Homo sapiens, UniProt Q9H0K1)	0.1 µM	-2
MARK4 (Homo sapiens, UniProt Q96L34)	0.1 µM	0
CAMK2G (Homo sapiens, UniProt Q13555)	0.1 µM	-1
PTK2B (Homo sapiens, UniProt Q14289)	0.1 µM	-1
EPHA2 (Homo sapiens, UniProt P29317)	1 µM	4
CHEK2 (Homo sapiens, UniProt O96017)	1 µM	0
AKT3 (Homo sapiens, UniProt Q9Y243)	0.1 µM	0
STK25 (Homo sapiens, UniProt O00506)	1 µM	21
MAPK3 (Homo sapiens, UniProt P27361)	1 µM	-8
DAPK3 (Homo sapiens, UniProt O43293)	0.1 µM	1
MARK2 (Homo sapiens, UniProt Q7KZI7)	0.1 µM	3
